Measured values gathered from unrelated publications.
Compare with care: the assays were run in different laboratories. ± gives the spread as reported.
RET: Proto-oncogene tyrosine-protein kinase receptor Ret (RET, Homo sapiens, UniProt P07949)
Chain of UniProt P07949 (whole entry, looked up): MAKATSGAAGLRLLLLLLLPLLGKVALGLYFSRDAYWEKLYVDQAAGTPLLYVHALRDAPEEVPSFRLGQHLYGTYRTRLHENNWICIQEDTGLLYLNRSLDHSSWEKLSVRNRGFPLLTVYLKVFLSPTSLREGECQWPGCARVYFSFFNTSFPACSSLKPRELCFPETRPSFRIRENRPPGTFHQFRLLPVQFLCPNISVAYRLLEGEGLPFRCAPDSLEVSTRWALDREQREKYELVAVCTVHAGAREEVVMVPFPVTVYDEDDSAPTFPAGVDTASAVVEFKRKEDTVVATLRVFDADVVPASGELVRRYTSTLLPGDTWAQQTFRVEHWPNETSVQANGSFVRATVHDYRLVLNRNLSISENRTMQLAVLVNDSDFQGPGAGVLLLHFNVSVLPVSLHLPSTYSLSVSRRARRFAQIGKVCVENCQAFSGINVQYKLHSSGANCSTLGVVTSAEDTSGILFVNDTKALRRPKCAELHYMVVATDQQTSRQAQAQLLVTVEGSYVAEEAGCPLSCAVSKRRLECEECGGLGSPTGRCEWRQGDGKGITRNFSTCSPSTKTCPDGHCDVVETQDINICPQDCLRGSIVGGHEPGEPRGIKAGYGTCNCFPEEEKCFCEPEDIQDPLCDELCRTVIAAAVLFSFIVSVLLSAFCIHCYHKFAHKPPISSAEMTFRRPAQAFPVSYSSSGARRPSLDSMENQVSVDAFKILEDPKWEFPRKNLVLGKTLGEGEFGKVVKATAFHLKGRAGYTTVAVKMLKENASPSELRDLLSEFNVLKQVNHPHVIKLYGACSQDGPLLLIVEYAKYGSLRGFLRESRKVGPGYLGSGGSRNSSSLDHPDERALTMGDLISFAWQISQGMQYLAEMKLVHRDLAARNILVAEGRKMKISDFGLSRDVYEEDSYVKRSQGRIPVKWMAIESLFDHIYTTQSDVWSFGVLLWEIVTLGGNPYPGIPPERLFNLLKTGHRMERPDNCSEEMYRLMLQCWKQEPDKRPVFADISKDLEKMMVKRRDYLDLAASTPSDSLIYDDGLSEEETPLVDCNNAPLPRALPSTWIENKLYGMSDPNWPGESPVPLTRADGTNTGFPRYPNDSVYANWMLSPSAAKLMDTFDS
IDE: Insulin-degrading enzyme (IDE, Homo sapiens, UniProt P14735)
PSMB5: Proteasome Macropain subunit MB1 (PSMB5, Homo sapiens, UniProt P28074)
Chain of UniProt P28074 (whole entry, looked up): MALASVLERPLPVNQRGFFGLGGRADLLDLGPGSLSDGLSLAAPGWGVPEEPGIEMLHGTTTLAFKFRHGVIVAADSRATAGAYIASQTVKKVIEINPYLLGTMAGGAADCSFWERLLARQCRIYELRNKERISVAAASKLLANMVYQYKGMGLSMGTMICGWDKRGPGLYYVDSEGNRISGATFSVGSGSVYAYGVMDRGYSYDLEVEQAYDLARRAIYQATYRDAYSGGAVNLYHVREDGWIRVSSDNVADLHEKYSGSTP
Protein AF-9 with DOT1L: Protein AF-9, with DOT1L (Homo sapiens, UniProt P42568)
Chain of UniProt P42568 (whole entry, looked up): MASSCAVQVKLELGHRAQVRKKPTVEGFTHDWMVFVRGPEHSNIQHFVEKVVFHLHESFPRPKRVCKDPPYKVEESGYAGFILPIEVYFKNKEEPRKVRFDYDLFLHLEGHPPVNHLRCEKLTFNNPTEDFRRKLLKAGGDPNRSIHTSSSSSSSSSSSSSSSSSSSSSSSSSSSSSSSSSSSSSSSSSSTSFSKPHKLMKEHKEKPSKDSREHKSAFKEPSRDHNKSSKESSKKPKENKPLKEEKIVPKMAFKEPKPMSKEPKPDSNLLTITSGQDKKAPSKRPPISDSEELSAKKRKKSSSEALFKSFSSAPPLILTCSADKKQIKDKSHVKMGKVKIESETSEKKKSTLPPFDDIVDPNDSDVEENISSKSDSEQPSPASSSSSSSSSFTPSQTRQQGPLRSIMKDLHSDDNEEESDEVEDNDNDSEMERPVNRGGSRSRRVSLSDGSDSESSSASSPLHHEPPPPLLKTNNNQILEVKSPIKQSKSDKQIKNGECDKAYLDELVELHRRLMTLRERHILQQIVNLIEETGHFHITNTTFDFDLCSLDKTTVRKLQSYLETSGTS
Chain of UniProt P37231 (whole entry, looked up): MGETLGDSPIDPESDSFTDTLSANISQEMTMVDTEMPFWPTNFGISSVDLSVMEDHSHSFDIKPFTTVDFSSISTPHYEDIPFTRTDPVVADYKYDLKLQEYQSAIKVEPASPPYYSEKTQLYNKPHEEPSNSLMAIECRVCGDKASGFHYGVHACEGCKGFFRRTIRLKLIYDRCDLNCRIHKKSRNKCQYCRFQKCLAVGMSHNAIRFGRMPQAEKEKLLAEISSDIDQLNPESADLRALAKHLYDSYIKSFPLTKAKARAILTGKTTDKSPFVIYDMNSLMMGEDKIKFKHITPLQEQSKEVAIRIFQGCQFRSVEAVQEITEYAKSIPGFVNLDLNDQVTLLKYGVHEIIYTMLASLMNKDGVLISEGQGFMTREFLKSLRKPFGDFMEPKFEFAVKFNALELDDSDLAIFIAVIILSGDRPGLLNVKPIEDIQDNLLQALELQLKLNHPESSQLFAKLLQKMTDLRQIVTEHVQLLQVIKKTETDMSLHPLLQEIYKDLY
Chain of UniProt P00747 (whole entry, looked up): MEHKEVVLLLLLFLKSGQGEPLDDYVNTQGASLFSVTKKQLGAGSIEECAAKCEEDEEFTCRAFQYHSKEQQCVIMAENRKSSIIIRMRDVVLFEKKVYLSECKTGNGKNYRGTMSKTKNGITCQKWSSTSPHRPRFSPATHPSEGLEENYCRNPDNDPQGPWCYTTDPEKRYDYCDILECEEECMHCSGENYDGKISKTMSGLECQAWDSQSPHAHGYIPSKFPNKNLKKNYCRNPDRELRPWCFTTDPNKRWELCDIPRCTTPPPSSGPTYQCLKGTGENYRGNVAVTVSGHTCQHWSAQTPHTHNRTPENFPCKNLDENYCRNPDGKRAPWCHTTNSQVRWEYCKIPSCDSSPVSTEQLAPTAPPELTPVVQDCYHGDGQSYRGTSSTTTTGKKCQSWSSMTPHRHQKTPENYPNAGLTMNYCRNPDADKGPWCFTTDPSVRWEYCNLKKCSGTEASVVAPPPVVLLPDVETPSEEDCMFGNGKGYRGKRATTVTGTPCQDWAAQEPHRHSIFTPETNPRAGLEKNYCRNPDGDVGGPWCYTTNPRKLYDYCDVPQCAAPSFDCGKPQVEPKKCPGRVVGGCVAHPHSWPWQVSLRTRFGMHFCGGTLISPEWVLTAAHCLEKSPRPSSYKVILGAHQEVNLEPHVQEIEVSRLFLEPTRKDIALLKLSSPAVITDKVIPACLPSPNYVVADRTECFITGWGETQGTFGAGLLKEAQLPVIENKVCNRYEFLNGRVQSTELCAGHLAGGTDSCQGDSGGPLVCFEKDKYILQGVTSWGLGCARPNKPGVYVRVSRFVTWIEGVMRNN
Chain of UniProt P00383 (whole entry, looked up): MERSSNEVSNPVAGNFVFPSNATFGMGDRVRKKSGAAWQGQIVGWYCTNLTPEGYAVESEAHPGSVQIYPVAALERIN
Chain of UniProt P20618 (whole entry, looked up): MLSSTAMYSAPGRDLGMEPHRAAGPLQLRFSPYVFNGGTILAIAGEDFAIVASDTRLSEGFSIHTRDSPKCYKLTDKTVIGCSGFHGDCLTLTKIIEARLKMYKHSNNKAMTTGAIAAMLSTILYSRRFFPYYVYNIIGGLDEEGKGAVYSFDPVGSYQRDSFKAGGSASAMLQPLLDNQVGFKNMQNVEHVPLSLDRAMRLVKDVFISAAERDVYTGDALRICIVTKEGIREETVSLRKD
Chain of UniProt Q9H8M2 (whole entry, looked up): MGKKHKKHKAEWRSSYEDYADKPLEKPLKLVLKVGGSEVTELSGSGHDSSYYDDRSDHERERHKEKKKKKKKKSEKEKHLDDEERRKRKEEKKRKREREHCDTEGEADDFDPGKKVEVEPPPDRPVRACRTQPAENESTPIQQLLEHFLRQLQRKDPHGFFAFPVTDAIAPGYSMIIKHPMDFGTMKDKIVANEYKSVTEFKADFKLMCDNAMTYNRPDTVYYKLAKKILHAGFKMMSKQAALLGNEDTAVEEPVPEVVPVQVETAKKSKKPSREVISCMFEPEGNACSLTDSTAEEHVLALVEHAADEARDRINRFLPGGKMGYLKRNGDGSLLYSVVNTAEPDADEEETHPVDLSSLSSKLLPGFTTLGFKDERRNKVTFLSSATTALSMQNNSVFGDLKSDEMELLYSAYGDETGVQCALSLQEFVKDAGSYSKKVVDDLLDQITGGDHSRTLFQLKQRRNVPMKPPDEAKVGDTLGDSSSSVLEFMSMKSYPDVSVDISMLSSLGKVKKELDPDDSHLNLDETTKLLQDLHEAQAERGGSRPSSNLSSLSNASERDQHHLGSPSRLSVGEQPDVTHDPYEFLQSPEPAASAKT
Chain of UniProt P05181 (whole entry, looked up): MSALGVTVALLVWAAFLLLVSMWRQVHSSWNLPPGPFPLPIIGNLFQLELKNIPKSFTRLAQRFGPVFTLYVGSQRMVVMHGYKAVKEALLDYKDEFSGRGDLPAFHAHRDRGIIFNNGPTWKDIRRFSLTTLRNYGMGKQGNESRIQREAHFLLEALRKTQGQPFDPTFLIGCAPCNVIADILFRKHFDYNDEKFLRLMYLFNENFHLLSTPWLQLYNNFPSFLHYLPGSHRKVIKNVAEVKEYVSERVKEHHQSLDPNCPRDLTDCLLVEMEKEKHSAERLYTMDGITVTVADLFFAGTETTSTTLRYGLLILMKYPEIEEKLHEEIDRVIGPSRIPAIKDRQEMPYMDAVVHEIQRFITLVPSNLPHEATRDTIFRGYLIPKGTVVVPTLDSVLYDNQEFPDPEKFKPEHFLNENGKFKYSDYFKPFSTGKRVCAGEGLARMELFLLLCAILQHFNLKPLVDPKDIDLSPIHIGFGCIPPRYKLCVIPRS

SMILES	target	assay	test system	conditions	measurement	result
Cc1ccc(NC(=O)c2ccc(C)c(C(F)(F)F)c2)cc1C#Cc1nn(C2CCC(O)CC2)c2ncnc(N)c12 (centres unmarked)	RET	inhibitor, radiometric kinase		together with: ATP 10 µM	IC50	4 nM
O=C(Nc1ccc(OCCF)cc1)c1cc([N+](=O)[O-])ccc1Cl	Peroxisome proliferator-activated receptor gamma, ligand-binding domain (PPARG, Homo sapiens, UniProt P37231)	binding, scintillation proximity	His-tagged ligand-binding domain	together with: [3H]rosiglitazone	IC50	47.5 ± 7.6 nM
Cc1cnn(Cc2ccc(Cn3cc(C(=O)NCc4ccc5c(N)nccc5c4)cn3)cc2)c1	Plasminogen (PLG, Homo sapiens, UniProt P00747)				IC50	> 40000 nM
CO[C@@H]1CN(C)C(=O)c2cc(NC(=O)c3ccc(Oc4ccccc4)cc3)ccc2OC[C@@H](C)NC[C@@H]1C	IDE	enzyme activity, inhibitor, fluorogenic kinetic		together with: Mca-RPPGFSAFK(Dnp)-OH substrate	EC50	2400 nM
COc1ccnc(CNC(=O)c2cnn(Cc3ccc(Cn4ccccc4=O)cc3)c2)c1F	Prothrombin (F2, Homo sapiens, UniProt P00734)				IC50	> 40000 nM
CC(C)C[C@H](NC(=O)c1cnccn1)C(=O)N[C@@H](C)C(=O)N[C@H](/C=C/S(C)(=O)=O)Cc1ccc(CN)cc1	PSMB5	competitive ABPP	Raji cell lysate		IC50	> 10000 nM
CC(C)C[C@H](NC(=O)[C@H](CCc1ccccc1)NC(=O)CN1CCOCC1)C(=O)N[C@@H](Cc1ccccc1)C(=O)NN(CC(C)C)C(=O)/C=C/C(=O)OCc1ccccc1	Proteasome component C5/PSMB5 (Homo sapiens, UniProt P20618+P28074)	chymotrypsin-like activity, inhibitor	human 20S proteasome	together with: Suc-LLVY-AMC 100 µM	IC50	1300 ± 500 nM
c1cc(N2CCCCC2)ccc1-c1cc2ncc(OCC3CCNCC3)nc2cc1-c1ccc(N2CCCCC2)cc1	Protein AF-9 with DOT1L	DOT1L binding, AlphaLISA			IC50	850 nM
Nc1nc(SCC(=O)Nc2ccc3c(c2)OCO3)[nH]c(=O)c1NC(=O)c1ccc(F)c(F)c1	RET	kinase activity, inhibitor		replicate three, together with: 1 µM ATP, poly(Glu,Tyr)	IC50	171000 nM
COc1cc(-c2cc(C(C)=O)n3ccccc23)cc(OC)c1Cn1ccnc1	BRD9 (Homo sapiens, UniProt Q9H8M2)	inhibitor			IC50	2.5 nM
Cc1cnc(-c2ccc(-c3ccc(NC(=O)Nc4c(F)cc(F)cc4F)cc3F)c3c2C(=O)NC3)[nH]1	RET	enzyme activity, inhibitor, mobility shift		together with: ATP 1 mM	IC50	228 nM
O=c1c(O)c(-c2ccc(O)c(O)c2)oc2cc(O)cc(O)c12	Cytochrome P450 2E1 (CYP2E1, Homo sapiens, UniProt P05181)		pooled human liver microsomes	10 min	IC50	24200 nM
COC(=O)c1ccc2nc(-c3ccc(OCc4ccccc4)c(Br)c3)[nH]c2c1	Dihydrofolate reductase type 2 (Escherichia coli, UniProt P00383)	enzyme activity		pH 7	IC50	> 30000 nM
Cc1ccccc1-c1ccc([C@H]2[C@@H]3CN(C(=O)C4CCOCC4)C[C@H]2N3)cc1	IDE	enzyme activity, inhibitor, fluorogenic kinetic		together with: Mca-RPPGFSAFK(Dnp)-OH substrate	EC50	2200 nM
Cc1ncc(C(=O)N[C@@H](CC(C)C)C(=O)N[C@@H](CC2CCCCC2)C(=O)N[C@H](/C=C/S(C)(=O)=O)Cc2ccc(CN)cc2)s1	PSMB5	competitive ABPP	Raji cell lysate		IC50	> 10000 nM
C[C@@H]1O[C@@H](O[C@@H]2[C@@H](O)[C@H](OCCc3ccc(O)c(O)c3)O[C@H](CO)[C@H]2OC(=O)/C=C/c2ccc(O)c(O)c2)[C@H](O)[C@H](O)[C@H]1O	alpha-glucosidase	inhibitor	biochemical		IC50	42.28 ± 0.17 µg/mL
COc1ccc(NC(=O)Nc2ccccc2-c2nc(-c3ccoc3)n[nH]2)cc1	RET	kinase activity, inhibitor		replicate one, together with: 1 µM ATP, poly(Glu,Tyr)	IC50	19900 nM
CC(C)C[C@H](NC(=O)[C@H](Cc1ccccc1)N=[N+]=[N-])C(=O)N[C@@H](CC(C)(C)F)C(=O)N[C@H](/C=C/S(C)(=O)=O)Cc1ccc(CN)cc1	PSMB5	competitive ABPP	Raji cell lysate		IC50	883 nM
O=C(NC1CCNCC1)c1ccc2nc(-c3ccc(N4CCCCC4)cc3)c(-c3ccc(N4CCCCC4)cc3)nc2c1	Protein AF-9 with DOT1L	DOT1L binding, AlphaLISA			IC50	2500 nM
COc1ccc([N+](=O)[O-])cc1C(=O)Nc1ccc(CCF)cc1	Peroxisome proliferator-activated receptor gamma, with RXR (PPARG, Homo sapiens, UniProt P37231)	reporter gene, antagonist, PPRE-TK-luciferase	transfected HepG2	24 h, together with: GW1929	IC50	> 2000 nM
